Published values from different studies.
Protocols differ between the studies behind these lines. ± marks the error that the study gave.
NR1H2 ligand-binding domain: Oxysterols receptor LXR-beta, ligand-binding domain (NR1H2, Homo sapiens, UniProt P55055)
UniProt P55055, sequence (whole entry, looked up): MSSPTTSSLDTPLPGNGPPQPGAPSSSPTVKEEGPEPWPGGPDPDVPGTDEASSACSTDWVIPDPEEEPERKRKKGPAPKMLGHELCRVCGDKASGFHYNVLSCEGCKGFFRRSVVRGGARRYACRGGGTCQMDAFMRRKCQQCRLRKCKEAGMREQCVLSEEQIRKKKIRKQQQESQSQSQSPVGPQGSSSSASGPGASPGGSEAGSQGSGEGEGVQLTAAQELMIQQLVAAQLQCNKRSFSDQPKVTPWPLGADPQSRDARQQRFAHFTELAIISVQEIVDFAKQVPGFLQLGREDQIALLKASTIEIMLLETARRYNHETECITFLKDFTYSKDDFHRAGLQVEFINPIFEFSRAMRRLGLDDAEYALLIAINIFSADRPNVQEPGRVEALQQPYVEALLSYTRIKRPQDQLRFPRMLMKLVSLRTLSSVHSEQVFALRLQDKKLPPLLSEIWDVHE
FFAR3: Free fatty acid receptor 3 (FFAR3, Homo sapiens, UniProt O14843)
UniProt O14843, sequence (whole entry, looked up): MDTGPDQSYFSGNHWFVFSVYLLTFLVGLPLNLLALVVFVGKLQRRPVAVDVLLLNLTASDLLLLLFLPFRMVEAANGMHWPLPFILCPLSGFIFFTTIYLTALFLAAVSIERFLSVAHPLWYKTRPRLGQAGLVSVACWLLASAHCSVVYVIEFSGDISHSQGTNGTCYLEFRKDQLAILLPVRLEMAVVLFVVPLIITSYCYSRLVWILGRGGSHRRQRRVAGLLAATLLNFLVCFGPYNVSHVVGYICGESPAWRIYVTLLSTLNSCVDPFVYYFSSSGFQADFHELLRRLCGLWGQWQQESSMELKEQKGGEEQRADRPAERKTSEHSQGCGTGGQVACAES
PTH1R: Parathyroid hormone/parathyroid hormone-related peptide receptor (PTH1R, Homo sapiens, UniProt Q03431)
UniProt Q03431, sequence (whole entry, looked up): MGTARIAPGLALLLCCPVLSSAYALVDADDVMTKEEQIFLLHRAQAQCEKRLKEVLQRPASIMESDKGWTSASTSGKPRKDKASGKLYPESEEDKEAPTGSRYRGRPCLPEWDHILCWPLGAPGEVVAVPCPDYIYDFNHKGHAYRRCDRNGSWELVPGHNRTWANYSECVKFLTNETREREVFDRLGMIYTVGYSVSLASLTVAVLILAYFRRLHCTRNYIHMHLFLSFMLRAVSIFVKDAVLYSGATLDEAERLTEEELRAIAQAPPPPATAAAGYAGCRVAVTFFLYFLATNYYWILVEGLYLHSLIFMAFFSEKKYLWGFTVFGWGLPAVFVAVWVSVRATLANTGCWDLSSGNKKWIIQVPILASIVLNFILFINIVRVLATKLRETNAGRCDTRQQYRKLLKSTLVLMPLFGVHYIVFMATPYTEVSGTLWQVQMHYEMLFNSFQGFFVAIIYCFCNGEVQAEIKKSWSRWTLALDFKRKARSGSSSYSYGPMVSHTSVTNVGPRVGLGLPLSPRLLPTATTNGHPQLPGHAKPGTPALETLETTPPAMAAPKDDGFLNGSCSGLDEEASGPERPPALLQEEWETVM
UniProt P30969, sequence (whole entry, looked up): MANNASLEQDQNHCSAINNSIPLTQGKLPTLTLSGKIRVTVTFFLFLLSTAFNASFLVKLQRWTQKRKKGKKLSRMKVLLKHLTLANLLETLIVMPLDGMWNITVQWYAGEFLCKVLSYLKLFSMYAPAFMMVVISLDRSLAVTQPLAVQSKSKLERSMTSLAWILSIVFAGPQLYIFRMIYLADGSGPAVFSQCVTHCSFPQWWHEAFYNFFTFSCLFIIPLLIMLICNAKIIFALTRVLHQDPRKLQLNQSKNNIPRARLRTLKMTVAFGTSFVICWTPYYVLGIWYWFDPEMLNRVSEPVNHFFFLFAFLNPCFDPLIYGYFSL
UniProt Q9WTJ5, sequence (whole entry, looked up): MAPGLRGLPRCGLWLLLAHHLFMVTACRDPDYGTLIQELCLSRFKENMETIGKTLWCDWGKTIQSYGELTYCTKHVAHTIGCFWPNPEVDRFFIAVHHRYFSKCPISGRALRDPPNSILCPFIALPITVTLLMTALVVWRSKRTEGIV
UniProt Q6W5P4, sequence (whole entry, looked up): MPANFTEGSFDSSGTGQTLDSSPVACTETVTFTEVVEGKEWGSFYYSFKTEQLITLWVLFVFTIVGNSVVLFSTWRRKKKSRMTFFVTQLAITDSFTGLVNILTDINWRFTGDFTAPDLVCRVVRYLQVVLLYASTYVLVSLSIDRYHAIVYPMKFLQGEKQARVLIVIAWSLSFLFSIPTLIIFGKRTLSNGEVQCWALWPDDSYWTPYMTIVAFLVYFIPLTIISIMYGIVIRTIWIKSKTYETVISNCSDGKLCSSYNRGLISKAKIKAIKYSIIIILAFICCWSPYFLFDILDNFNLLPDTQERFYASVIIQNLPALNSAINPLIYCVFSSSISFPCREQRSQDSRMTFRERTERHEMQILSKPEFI
UniProt P21761, sequence (whole entry, looked up): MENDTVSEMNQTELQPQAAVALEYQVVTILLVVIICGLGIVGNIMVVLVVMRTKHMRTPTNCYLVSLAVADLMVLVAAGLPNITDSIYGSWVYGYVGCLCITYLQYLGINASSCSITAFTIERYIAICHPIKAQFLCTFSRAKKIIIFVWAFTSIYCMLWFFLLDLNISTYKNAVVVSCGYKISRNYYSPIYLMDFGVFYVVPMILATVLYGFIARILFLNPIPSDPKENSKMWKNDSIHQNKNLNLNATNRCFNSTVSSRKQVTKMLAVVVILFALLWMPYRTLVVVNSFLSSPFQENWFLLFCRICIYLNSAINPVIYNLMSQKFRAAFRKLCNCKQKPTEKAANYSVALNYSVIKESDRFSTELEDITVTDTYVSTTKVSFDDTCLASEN
UniProt P43119, sequence (whole entry, looked up): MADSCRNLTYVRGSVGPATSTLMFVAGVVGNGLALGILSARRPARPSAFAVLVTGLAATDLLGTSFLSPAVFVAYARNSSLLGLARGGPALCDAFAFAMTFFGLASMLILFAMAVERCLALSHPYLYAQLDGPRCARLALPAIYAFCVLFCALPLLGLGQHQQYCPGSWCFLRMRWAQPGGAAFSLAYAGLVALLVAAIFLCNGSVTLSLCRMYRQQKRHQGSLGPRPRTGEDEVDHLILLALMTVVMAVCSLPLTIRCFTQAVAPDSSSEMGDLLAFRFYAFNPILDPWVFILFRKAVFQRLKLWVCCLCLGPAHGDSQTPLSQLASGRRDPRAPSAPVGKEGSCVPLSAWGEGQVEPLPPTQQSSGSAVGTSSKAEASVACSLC
UniProt Q60755, sequence (whole entry, looked up): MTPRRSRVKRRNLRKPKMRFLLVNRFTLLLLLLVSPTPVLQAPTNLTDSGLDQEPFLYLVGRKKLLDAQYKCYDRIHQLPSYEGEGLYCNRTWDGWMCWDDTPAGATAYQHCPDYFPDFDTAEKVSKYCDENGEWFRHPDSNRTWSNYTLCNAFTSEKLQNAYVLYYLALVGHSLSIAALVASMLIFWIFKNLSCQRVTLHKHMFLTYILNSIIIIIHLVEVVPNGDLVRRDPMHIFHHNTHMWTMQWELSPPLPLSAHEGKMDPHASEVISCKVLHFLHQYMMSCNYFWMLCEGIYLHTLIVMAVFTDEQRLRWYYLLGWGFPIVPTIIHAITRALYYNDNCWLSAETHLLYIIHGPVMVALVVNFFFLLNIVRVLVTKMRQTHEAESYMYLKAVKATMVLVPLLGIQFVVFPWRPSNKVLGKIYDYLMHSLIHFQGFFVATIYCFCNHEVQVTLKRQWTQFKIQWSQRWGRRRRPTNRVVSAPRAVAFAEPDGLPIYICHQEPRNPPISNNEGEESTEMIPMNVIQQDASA
UniProt Q64663, sequence (whole entry, unmodified, looked up): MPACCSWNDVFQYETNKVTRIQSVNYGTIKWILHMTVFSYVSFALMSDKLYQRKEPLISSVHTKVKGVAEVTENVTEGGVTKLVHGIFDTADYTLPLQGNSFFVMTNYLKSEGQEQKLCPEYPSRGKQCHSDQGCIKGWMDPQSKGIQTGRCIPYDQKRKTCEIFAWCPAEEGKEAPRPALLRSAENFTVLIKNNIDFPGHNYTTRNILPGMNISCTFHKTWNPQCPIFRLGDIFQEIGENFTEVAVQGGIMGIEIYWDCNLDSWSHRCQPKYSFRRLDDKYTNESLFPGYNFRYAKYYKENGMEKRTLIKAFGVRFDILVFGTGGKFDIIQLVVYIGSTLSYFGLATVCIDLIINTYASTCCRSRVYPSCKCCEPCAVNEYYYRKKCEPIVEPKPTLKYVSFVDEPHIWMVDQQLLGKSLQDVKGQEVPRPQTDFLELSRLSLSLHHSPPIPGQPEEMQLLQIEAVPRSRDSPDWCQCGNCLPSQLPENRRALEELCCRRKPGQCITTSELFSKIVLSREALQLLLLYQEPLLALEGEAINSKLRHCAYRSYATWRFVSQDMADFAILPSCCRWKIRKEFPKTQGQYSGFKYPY

Substance	target	test	test system	setting	EC50 [µM]
CC(C)C[C@H](NC(=O)CNC(=O)[C@H](C)NC(=O)[C@H](CC(C)C)NC(=O)[C@H](CCCNC(=N)N)NC(=O)[C@H](Cc1cnc[nH]1)NC(=O)[C@@H](NC(=O)[C@@H](NC(=O)[C@@H]1CSSC[C@H](NC(=O)[C@H](C)N)C(=O)N[C@@H](CC(=O)O)C(=O)N[C@@H]([C@@H](C)O)C(=O)N[C@@H](C)C(=O)N[C@@H]([C@@H](C)O)C(=O)N1)C(C)C)[C@@H](C)O)C(=O)N[C@@H](CC(C)C)C(=O)N[C@@H](CO)C(=O)N[C@@H](CCCNC(=N)N)C(=O)N[C@@H](CO)C(=O)NCC(=O)NCC(=O)N[C@H](C(=O)N[C@H](C(=O)N[C@@H](CCCCN)C(=O)N[C@@H](CC(N)=O)C(=O)N[C@@H](CC(N)=O)C(=O)N[C@@H](Cc1ccccc1)C(=O)N[C@H](C(=O)N1CCC[C@H]1C(=O)N[C@H](C(=O)N[C@@H](CC(N)=O)C(=O)N[C@H](C(=O)NCC(=O)N[C@@H](CO)C(=O)N[C@@H](CCCCN)C(=O)N[C@@H](C)C(=O)N[C@@H](Cc1ccccc1)C(N)=O)C(C)C)[C@@H](C)O)C(C)C)C(C)C)C(C)C	Calcr/Ramp1 (Mus musculus, UniProt Q60755+Q9WTJ5)	cAMP production, agonist	COS-7, transfected	15 min, 37 °C, with: IBMX 1 mM	0.00603
CC(C)n1cnc(C[C@H](NC(=O)c2cnccn2)C(=O)N2CCC[C@H]2C(N)=O)c1	Thyrotropin-releasing hormone receptor (Mus musculus, UniProt P21761)	calcium signal, agonist, fluorescence	–	–	0.001
CN(C(=O)c1cccc(C(F)(F)F)c1)c1ccc(C(O)(C(F)(F)F)C(F)(F)F)cc1	NR1H2 ligand-binding domain	agonist	–	concentration not given	3.1 ± 0.1
BzATP	P2X purinoceptor 7 (P2rx7, Rattus norvegicus, UniProt Q64663, Q143A)	ion current, agonist, two-electrode voltage clamp	Xenopus laevis oocytes	Q143A mutant	6 ± 2
CCCCC(=O)O	FFAR3	agonist	–	–	28.8
N#Cc1ccc(COc2cccc(C3CCN(Cc4nc5ccc(C(=O)O)cc5n4C[C@@H]4CCO4)CC3)n2)c(F)c1	Glucagon-like peptide 1 receptor (Oryctolagus cuniculus, UniProt G1SGD4)	cAMP accumulation	CHO cells expressing target	free concentration	> 20
C=C1CC[C@H](OCCCNC(=O)CCOCCOCCOCCOCCOCCOCCOCCOCCOCCOCCOCCOCCOCCOCCOCCOCCOCCOCCOCCOCCOCCOCCOCCOCCOCCOCCOCCOCCOCCOCCOCCOCCOCCOCCOCCOCCNC(=O)CCN2C(=O)CC(SC[C@H](NC(=O)[C@H](Cc3ccccc3)NC(=O)[C@H](CC(N)=O)NC(=O)[C@H](Cc3c[nH]cn3)NC(=O)[C@@H](NC(=O)[C@H](CC(=O)O)NC(=O)[C@H](CCC(N)=O)NC(=O)[C@H](CC(C)C)NC(=O)[C@H](CCCCN)NC(=O)[C@H](CCCCN)NC(=O)[C@H](CCCNC(=N)N)NC(=O)[C@H](CC(C)C)NC(=O)[C@H](Cc3c[nH]c4ccccc34)NC(=O)[C@H](CCC(=O)O)NC(=O)[C@@H](NC(=O)[C@H](CCCNC(=N)N)NC(=O)[C@H](CCC(=O)O)NC(=O)[C@H](CCSC)NC(=O)[C@H](CO)NC(=O)[C@H](CC(N)=O)NC(=O)[C@H](CC(C)C)NC(=O)[C@H](Cc3c[nH]cn3)NC(=O)[C@H](CCCCN)NC(=O)CNC(=O)[C@H](CC(C)C)NC(=O)[C@H](CC(N)=O)NC(=O)[C@H](Cc3c[nH]cn3)NC(=O)[C@H](CCSC)NC(=O)[C@H](CC(C)C)NC(=O)[C@H](CCC(N)=O)NC(=O)[C@@H](NC(=O)[C@H](CCC(=O)O)NC(=O)[C@H](CO)NC(=O)[C@@H](NC(=O)[C@@H](N)CO)C(C)C)[C@@H](C)CC)C(C)C)C(C)C)C(N)=O)C2=O)C/C1=C/C=C1\CCC[C@]2(C)[C@@H]([C@H](C)CCCC(C)(C)O)CC[C@@H]12 (some centres unmarked)	PTH1R	calcium signal, agonist, fluorescence	–	–	0.0273
CC[C@H](C)[C@H](NC(=O)[C@H](CO)NC(=O)[C@H](CCCCN)NC(=O)CNC(=O)[C@H](CCCCN)NC(=O)[C@H](CC(=O)O)NC(=O)[C@H](Cc1c[nH]cn1)NC(=O)[C@H](CC(C)C)NC(=O)[C@H](CC(C)C)NC(=O)[C@H](CCC(N)=O)NC(=O)[C@H](Cc1c[nH]cn1)NC(=O)[C@H](CCC(=O)O)NC(=O)[C@H](CO)NC(=O)[C@@H](NC(=O)[C@H](C)N)C(C)C)C(=O)N[C@@H](CCC(N)=O)C(=O)N[C@@H](CO)C(=O)N[C@@H](CCSC)C(=O)N[C@@H](CCC(=O)O)C(=O)N[C@@H](CCCNC(=N)N)C(=O)N[C@H](C(=O)N[C@@H](CCC(=O)O)C(=O)N[C@@H](Cc1c[nH]c2ccccc12)C(=O)N[C@@H](CC(C)C)C(=O)N[C@@H](CCCNC(=N)N)C(=O)N[C@@H](CCCCN)C(=O)N[C@@H](CCCCN)C(=O)N[C@@H](CC(C)C)C(=O)N[C@@H](CCC(N)=O)C(=O)N[C@@H](CC(=O)O)C(=O)N[C@H](C(=O)N[C@@H](Cc1c[nH]cn1)C(=O)N[C@@H](CC(N)=O)C(=O)N[C@@H](Cc1ccccc1)C(=O)N[C@@H](CCCCNC(=O)c1ccc2c(c1)C1(OC2=O)c2ccc(N(C)C)cc2Oc2cc(N(C)C)ccc21)C(N)=O)C(C)C)C(C)C	PTH1R	cAMP formation, agonist, GloSensor	HEK293 GP2.3	15 min	0.00048 ± 0.0002
CC(C)C[C@H](NC(=O)[C@@H](Cc1c[nH]c2ccccc12)NC(=O)[C@H](Cc1ccc(O)cc1)NC(=O)[C@H](CO)NC(=O)[C@H](Cc1c[nH]c2ccccc12)NC(=O)[C@H](Cc1c[nH]cn1)NC(=O)[C@@H]1CCC(=O)N1)C(=O)N[C@@H](CCCNC(=N)N)C(=O)N1CCC[C@H]1C(=O)NCC(N)=O	Gonadotropin-releasing hormone receptor (Rattus norvegicus, UniProt P30969)	inositol phosphate accumulation, agonist	HEK293 expressing Gonadotropin-releasing hormone receptor	60 min, 37 °C, with: 10 mM LiCl	0.00014 ± 1e-05
CC(=O)O	FFAR3	agonist	–	–	1740
O=C(O)/C=C/c1cccc(NC(=O)c2cc(-c3ccc(F)cc3)ccc2F)c1	PTGIR (Homo sapiens, UniProt P43119)	calcium signal, agonist, fluorescence	–	–	> 10
COc1cccc(S(=O)(=O)N(C)c2ccc(C(O)(C(F)(F)F)C(F)(F)F)cc2)c1	NR1H2 ligand-binding domain	agonist	–	concentration not given	1.25 ± 0.01
CC(C)CC(=O)O	FFAR3	agonist	–	–	741
COc1cccc(C2=Nn3c(nnc3-c3ccccc3OC)SC2)c1	CXCR4 (Homo sapiens, UniProt P61073)	β-arrestin recruitment, agonist	–	–	10.7
CC[C@H](C)[C@H](NC(=O)[C@H](CCC(=O)O)NC(=O)[C@H](CO)NC(=O)[C@@H](NC(=O)[C@@H](N)CO)C(C)C)C(=O)N[C@@H](CCC(N)=O)C(=O)N[C@@H](CC(C)C)C(=O)N[C@@H](CCSC)C(=O)N[C@@H](Cc1c[nH]cn1)C(=O)N[C@@H](CC(N)=O)C(=O)N[C@@H](CC(C)C)C(=O)NCC(=O)N[C@@H](CCCCN)C(=O)N[C@@H](Cc1c[nH]cn1)C(=O)N[C@@H](CC(C)C)C(=O)N[C@@H](CC(N)=O)C(=O)N[C@@H](CO)C(=O)N[C@@H](CCSC)C(=O)N[C@@H](CCC(=O)O)C(=O)N[C@@H](CCCNC(=N)N)C(=O)N[C@H](C(=O)N[C@@H](CCC(=O)O)C(=O)N[C@@H](Cc1c[nH]c2ccccc12)C(=O)N[C@@H](CC(C)C)C(=O)N[C@@H](CCCNC(=N)N)C(=O)N[C@@H](CCCCN)C(=O)N[C@@H](CCCCN)C(=O)N[C@@H](CC(C)C)C(=O)N[C@@H](CCC(N)=O)C(=O)N[C@@H](CC(=O)O)C(=O)N[C@H](C(=O)N[C@@H](Cc1c[nH]cn1)C(=O)N[C@@H](CC(N)=O)C(=O)N[C@@H](Cc1ccccc1)C(=O)N[C@H](C(=O)N[C@@H](C)C(=O)N[C@@H](CC(C)C)C(=O)O)C(C)C)C(C)C)C(C)C	PTH1R	reporter gene, agonist, luciferase	–	–	0.000933
N=C(N)NCCC[C@H](NC(=O)[C@H](Cc1ccccc1)NC(=O)[C@@H](N)CO)C(=O)N[C@@H](CC(N)=O)C(N)=O	NPSR1 (Homo sapiens, UniProt Q6W5P4)	cAMP, agonist, TR-FRET	–	–	> 10
COCCOc1ccc2cc1S(=O)(=O)NCCCNc1nc(ncc1-c1ccc(F)c(OC)c1)N2	EPHA4 (Homo sapiens, UniProt P54764)	target engagement in cells, BRET	–	–	0.06

Excerpt of the above:
Substance	target	test	test system	setting	EC50 [µM]
CCCCC(=O)O	FFAR3	agonist	–	–	28.8
O=C(O)/C=C/c1cccc(NC(=O)c2cc(-c3ccc(F)cc3)ccc2F)c1	PTGIR (Homo sapiens, UniProt P43119)	calcium signal, agonist, fluorescence	–	–	> 10
